Measured values collected from several papers.
Lines come from different studies, so protocols differ. Several values in a cell are separate wells, animals, samples, runs or records. ± gives the spread as reported.

Compound	assay	test system	setting	how to read	endpoint	value
O=C(O)CCCOc1ccc(F)cc1-c1cc(-c2ccccc2C(F)(F)F)n(-c2ccccc2)n1	–	male Crl:CD(SD) rats, liver	intravenous, 25 µg/kg, 14 d	–	organ weight	11.4 ± 0.62 g
C[C@]1(O)C[C@@](N)(c2ccc(-c3nc4n(c3-c3ccccc3)COc3ccncc3-4)cc2)C1	–	human, advanced or metastatic solid tumours	intermittent, dose escalation total, any grade	–	patients with Rash TEAE	57.1%
Cc1ccc(F)c2cc(C(=O)N[C@@H]3CCC[C@H](N4CC[C@H](N(C)S(C)(=O)=O)C4)C3)[nH]c12	–	CD1 mouse	oral, 30 mg/kg	–	MRT(0-inf)	3.4 h
CC(C)C[C@H](NC(=O)[C@H](CCCCN)NC(=O)OCC1c2ccccc2-c2ccccc21)C(=O)N[C@H](C(=O)N[C@@H](Cc1ccccc1)C(=O)N[C@@H](Cc1ccccc1)C(=O)N[C@@H](CCCCN)C(=O)NCC(=O)N[C@@H](Cc1ccccc1)C(=O)N[C@@H](C)C(=O)N[C@@H](Cc1c[nH]c2ccccc12)C(=O)N[C@@H](CC(N)=O)C(=O)N[C@H](C(=O)N[C@H]1CSSC[C@@H](C(=O)N[C@@H](Cc2c[nH]cn2)C(=O)N[C@@H](CCCNC(=N)N)C(=O)N[C@@H](CCCNC(=N)N)C(=O)N[C@@H](C)C(=O)N[C@@H](CC(N)=O)C(N)=O)NC(=O)[C@H](C(C)C)NC(=O)[C@H](CCCNC(=N)N)NC(=O)[C@H](C(C)C)NC(=O)CNC(=O)[C@H](CC(N)=O)NC(=O)[C@H](CCCNC(=N)N)NC(=O)[C@H](Cc2ccc(O)cc2)NC(=O)[C@H](C(C)C)NC1=O)C(C)C)C(C)C	–	ICR mice, serum	intraductal mammary, 10 mg/kg, day 5	–	blood urea nitrogen	10.3 ± 0.7 mmol/L
O=C1O[C@H]2[C@@H]3OC(=O)c4cc(O)c(O)c(O)c4-c4c(O)c(O)c5oc(=O)c6c(c(O)c(O)c7oc(=O)c4c5c76)-c4c(cc(O)c(O)c4O)C(=O)OC[C@H]3OC(O)[C@@H]2OC(=O)c2cc(O)c(O)c(O)c2-c2c1cc(O)c(O)c2O (mixture of isomers)	–	BALB/c mice	1000 mg/kg/day, 28 days, subacute toxicity study	–	spleen weight	0.089 g
NC(=O)[C@H]1CCN(c2ncnc(N)c2F)C[C@@H]1N1CCC[C@@H](Nc2cc(Cl)cc(C(F)(F)F)c2)C1=O	–	B-cell malignancy patients	oral, 246 mg twice daily, dose	–	grade ≥3 hyponatraemia	0%
[O-][S+]1CCc2nc(N3CCC(c4ncc(Cl)cn4)CC3)nc(NC3(CO)CCC3)c21 (stereo not shown)	item: mean	idiopathic pulmonary fibrosis patients, blood	18 mg twice daily, at last treatment	–	aspartate aminotransferase	14.4 U/L
[2H]C([2H])([18F])[C@]([2H])(N)C(=O)O	PET	athymic nude mice, U-87 MG, tumor	dose not given, 15 min post-injection	–	tissue uptake	1.52 ± 0.08 %ID/cc
CN[C@H](CC(C)C)C(=O)N[C@H]1C(=O)N[C@@H](CC(N)=O)C(=O)N[C@H]2C(=O)N[C@H]3C(=O)N[C@H](C(=O)N[C@H](C(=O)O)c4cc(O)cc(O)c4-c4cc3ccc4O)[C@H](O)c3ccc(c(Cl)c3)Oc3cc2cc(c3O[C@@H]2O[C@H](CO)[C@@H](O)[C@H](O)[C@H]2O[C@H]2C[C@](C)(N)[C@H](O)[C@H](C)O2)Oc2ccc(cc2Cl)[C@H]1O	–	Sprague Dawley rat, both sexes	intraperitoneal, 200 mg/kg/day, 10 days	relative to: baseline	serum creatinine	increased
COc1cccc(Oc2ccccc2NC(=O)CNC(=O)c2cccc3ccccc23)c1	–	esterase-deficient SCID mice, male	oral, 15 mg/kg/day, 14 days, toxicity study	–	serum potassium	7.6 mmol/L and > 10 mmol/L and 7.9 mmol/L
O=C1Nc2cc3[nH]nc(-c4ccncc4)c3cc2CN1Cc1ccccc1	CTCAE v4.03	advanced solid tumour patients	intravenous, 0.9 mg/kg, schedules 1/2	–	patients with acneiform dermatitis	0%
CC(C)(C)c1cc(-n2nc3ccccc3n2)c(O)c(C(C)(C)C)c1	–	EpiSkin reconstructed epidermis	36 h	–	mass recovery	58.5%
COc1ccnc(C(=O)N[C@H]2COC(=O)[C@H](Cc3ccccc3)[C@@H](OC(=O)C(C)C)[C@H](C)OC2=O)c1OCOC(=O)C(C)C	aerobic dark soil incubation	silt loam soil	20 °C, modelling endpoint	–	DT50	5.96 days
COc1ccc2nc3cc(Cl)ccc3c(Nc3cc(CN4CCCC4)c(O)c(CN4CCCC4)c3)c2n1	–	mouse, blood	intraperitoneal, 14 mg/kg	–	red cell distribution width (CV)	13.4%
C#C[C@]1(CO)O[C@@H](n2cnc3c(N)nc(F)nc32)C[C@@H]1O	–	monkey	29 days	–	NOAEL	20 mg/kg/dose
CC(=O)c1c(C)c2cnc(Nc3ccc(C4CCN(CCS(C)(=O)=O)CC4)cn3)nc2n(C2CCCC2)c1=O	–	HR+/HER2- advanced breast cancer patients	oral, 100 mg twice daily, all grades,, monotherapy	–	patients with GGT increased	6.7%
CCCCCCCCCCCCCCCC(=O)N[C@@H](CCC(=O)NCCCC[C@H](NC(=O)[C@H](CC(=O)O)NC(=O)[C@H](CO)NC(=O)[C@@H](NC(=O)[C@H](Cc1ccccc1)NC(=O)[C@@H](NC(=O)CNC(=O)[C@H](CCC(N)=O)NC(=O)[C@H](CO)NC(=O)[C@@H](N)Cc1c[nH]cn1)[C@@H](C)O)[C@@H](C)O)C(=O)N[C@@H](CO)C(=O)N[C@@H](CCC(=O)O)C(=O)N[C@@H](Cc1ccc(O)cc1)C(=O)N[C@@H](CC(C)C)C(=O)N[C@@H](CC(=O)O)C(=O)N[C@@H](CO)C(=O)N[C@@H](CCC(=O)O)C(=O)N[C@@H](CCCNC(=N)N)C(=O)N[C@@H](C)C(=O)N[C@@H](CCCNC(=N)N)C(=O)N[C@@H](CC(=O)O)C(=O)N[C@@H](Cc1ccccc1)C(=O)N[C@H](C(=O)N[C@@H](C)C(=O)N[C@@H](Cc1c[nH]c2ccccc12)C(=O)N[C@@H](CC(C)C)C(=O)N[C@@H](CCC(=O)O)C(=O)N[C@@H](C)C(=O)NCC(=O)NCC(=O)O)C(C)C)C(=O)O	item: Tachycardia	humans CrCl 45 to 60 mL/min	subcutaneous, 100 µg single dose	–	treatment-related adverse events	0%
CC(C)[C@@H]1NC(=O)CNC(=O)[C@H](CC(N)=O)NC(=O)[C@H](CCCNC(=N)N)NC(=O)[C@H](Cc2ccc(O)cc2)NC(=O)[C@H](C(C)C)NC(=O)[C@@H](NC(=O)[C@@H](NC(=O)[C@H](CC(N)=O)NC(=O)[C@H](Cc2c[nH]c3ccccc23)NC(=O)[C@H](C)NC(=O)[C@H](Cc2ccccc2)NC(=O)CN)C(C)C)CSSC[C@@H](C(=O)N[C@@H](Cc2cnc[nH]2)C(=O)N[C@@H](CCCNC(=N)N)C(=O)N[C@@H](CCCNC(=N)N)C(=O)N[C@@H](C)C(=O)N[C@@H](CC(N)=O)C(N)=O)NC(=O)[C@H](C(C)C)NC(=O)[C@H](CCCNC(=N)N)NC1=O	–	ICR mice, blood	intraductal mammary, 10 mg/kg, day 5	–	neutrophils	18.2 ± 0.96%
Cc1cn([C@H]2O[C@@H](CO[P@@](=O)(N[C@@H](C)C(=O)OC(C)C)Oc3ccccc3)[C@H](O)[C@H]2F)c(=O)[nH]c1=O	item: bone pain	human	25 mg	–	patients with TEAE	20%

Compound	assay	test system	setting	how to read	endpoint	value
Cc1ccccc1C(=O)NN=Cc1ccc(O)c(Br)c1	–	normal C3H/HeN mouse, plasma	intravenous, 0.8 mg/kg	–	C0	150 ng/mL
CC(C)CC(=O)OC[C@H]1O[C@@](C#N)(c2ccc3c(N)ncnn23)[C@H](O)[C@@H]1O	plasma protein binding	dog plasma	9 µM, time not given	–	recovery	94%
CC[C@H](C)[C@H](NC(=O)[C@H](Cc1ccccc1)NC(=O)[C@H](CCC(=O)O)NC(=O)[C@H](CCCNC(=N)N)NC(=O)[C@H](C)NC(=O)[C@H](C)NC(=O)[C@H](CCC(N)=O)NC(=O)[C@H](CCC(=O)O)NC(=O)[C@H](CCC(=O)O)NC(=O)[C@H](CC(C)C)NC(=O)[C@H](Cc1ccc(O)cc1)NC(=O)[C@H](CO)NC(=O)[C@H](CO)NC(=O)[C@@H](NC(=O)[C@H](CC(=O)O)NC(=O)[C@H](CO)NC(=O)[C@@H](NC(=O)[C@H](Cc1ccccc1)NC(=O)[C@@H](NC(=O)CNC(=O)[C@H](CCC(=O)O)NC(=O)[C@H](C)NC(=O)CCc1cnc[nH]1)[C@@H](C)O)[C@@H](C)O)C(C)C)C(=O)N[C@@H](C)C(=O)N[C@@H](Cc1c[nH]c2ccccc12)C(=O)N[C@@H](CC(C)C)C(=O)N[C@H](C(=O)N[C@@H](CCCNC(=N)N)C(=O)NCC(=O)N[C@@H](CCCNC(=N)N)C(=O)N[C@@H](CCCCNC(=O)COCCOCCNC(=O)COCCOCCNC(=O)CC[C@H](NC(=O)CCCCCCCCCCCCCCCCC(=O)O)C(=O)O)C(=O)NCC(=O)NCC(=O)N[C@@H](CO)C(=O)N[C@@H](CCSC)C(=O)N[C@H](C(=O)N[C@@H](CCCCNc1c(NCCCCCN(O)C(=O)CCC(=O)NCCCCCN(O)C(=O)CCC(=O)NCCCCCN(O)C(C)=O)c(=O)c1=O)C(=O)O)C(C)C)C(C)C [zirconium-89 labelled]	ex vivo gamma counting	male Sprague-Dawley rats, lung	intravenous, 1 nmol, 24 h, mean of 3 animals	–	tissue uptake	0.88 %ID/g
COc1cc(C(=O)NC2CCN(C)CC2)c(F)cc1Nc1ncc(C(F)(F)F)c(Oc2cccc3c2C(=O)N(C)C3)n1	–	human patients, urine	oral, 50 mg single dose, geometric mean	relative to: dose	fraction excreted in urine (0-48 h)	5.26%
Cn1nccc1[C@]1(CNC(=O)c2ccc(F)c(F)c2-c2ccc(C(F)(F)F)cc2)NC(=O)NC1=O	–	mouse	intravenous, 0.3 mg/kg	–	dose-normalised AUC	1.5 kg·h/L
Cn1cc(-c2nc(N[C@@H]3CCCC[C@@H]3N)c(F)c3c2C(=O)NC3)cn1	item: Mouth haemorrhage	patients with relapsed or refractory AML	oral, 100 mg once daily	–	hemorrhagic adverse events	14%
CO[C@H]1C[C@@H]2CC[C@@H](C)[C@@](O)(O2)C(=O)C(=O)N2CCCC[C@H]2C(=O)O[C@H]([C@H](C)C[C@@H]2CC[C@@H](OC(=O)NCCOCCOCCOCCOCCOCCOCCOCCOCCC(=O)N3CCc4cc(Cn5nc(-c6ccc7oc(N)nc7c6)c6c(N)ncnc65)ccc4C3)[C@H](OC)C2)C[C@@H](O)[C@H](C)/C=C(\C)[C@@H](O)[C@@H](OC)C(=O)[C@H](C)C[C@H](C)/C=C/C=C/C=C/1C	–	patients with advanced solid tumours	intravenous, dose not given, any grade	–	incidence of Mucositis TRAE	49.1%
NC(=O)[C@@H]1CC(F)(F)CN1C(=O)c1ccc(N2CC(F)(F)C2)c(OCC2CC2)n1	–	C57BL/6 mice	oral, dose not given	–	oral bioavailability	120%
O=C(Nc1ccccc1)C1CCN(C(=O)Oc2cccnc2)CC1	psychotropic effects VAS	healthy women	100 mg	relative to: pre-dose baseline, direction not given	change in Meaning score	0.1
C=CC(=O)N1CC[C@H](n2nc(C#Cc3cc(OC)cc(OC)c3)c3c(N)ncnc32)C1	–	human patients	oral, dose not given, QD regimen, adverse drug reaction, together with: lanthanum carbonate hydrate	–	AST increased, any grade	20.8%
C[C@]1(CO)Cc2ncn(-c3ccc(C#N)c(Cl)c3)c2C(=O)O1	–	human	3 mg multiple doses, fasted	–	subjects with drug-related dizziness	0%
COc1ncccc1-c1cnn2ccc(N3CCN(C(=O)OC(C)C)CC3)nc12	–	rat, brain	oral, 30 mg/kg, 1.5 h, together with: yohimbine pretreatment	–	concentration	4.7 µM
CCc1ccc(CC/C=C/c2ccc3c(c2)C(=O)CC3)cc1	–	Sprague-Dawley rat, female	oral, 450 mg/kg/day, 14 days	–	Eosinophil percentage	0.7%
O=c1ccc2ncc(=O)n3c2n1C[C@H]3CN1CCC(NCc2cc3c(cn2)OCCC3)CC1	–	healthy human volunteers, plasma	oral, dose not given, arithmetic mean, together with: itraconazole	–	AUC(0-inf)	27200 ng·h/mL
O=S(=O)(Nc1ccccc1)c1ccc(NC(=S)Nc2ccccc2)cc1	item: Ca	male mouse, blood	oral, 80 mg/kg daily, 14 days	–	blood chemistry level	10 mg/dL
COc1cc2c(Oc3ccc4[nH]c(C)cc4c3F)ccnc2cc1OCC1(N)CC1	–	paediatric recurrent refractory sarcoma	10 mg	–	grade 1 or 2 weight loss	25%
CCN1[C@@H](C(=O)NC23CCC(C(=O)O)(CC2)CC3)[C@H](c2cccc(Cl)c2F)[C@]2(C(=O)Nc3cc(Cl)ccc32)C12CCCCC2	–	advanced solid tumour patients	oral, dose not given	–	grade ≥3 vomiting	4.8%
Cn1ncc(-c2nc(N[C@H]3CC[C@H](N)CC3)ncc2Cl)c1CC1CC1	phase I dose escalation	human patients	dose not given, any-grade TEAE	relative to: patients	febrile neutropenia incidence	11%
